Published values of several laboratories.
Lines come from different studies, so protocols differ. Numbers after ± are the reported error.

Structure (SMILES)	test	system	conditions	Cmax
Cc1noc(C)c1-c1cc(C(O)(c2ccccn2)c2ccccn2)c2nc(C3CC3)[nH]c2c1		human patients, plasma	oral, 1.4 mg, cycle 1 day 8, monotherapy	117 ng/mL
Fc1ccc([C@@H]2CCNC[C@H]2COc2ccc3c(c2)OCO3)cc1		human, CYP2D6 normal metabolizers	oral, 20 mg, steady state, geometric mean	23 ng/mL
N#Cc1ccc2c(c1)[C@H]1CCCN(C(=O)c3ccc4[nH]cnc4c3)[C@H]1C2		human, plasma	oral, 20 mg once daily, after first dose	1560 nM
CN(C)N=Nc1[nH]cnc1C(N)=O		human patients, plasma	intravenous, 1000 mg/m^2 over 1 h, cycle 2 day 1, staggered with twice-weekly co-drug	32900 ng/mL
Cc1ccc([C@@H]2O[C@H](CO)[C@@H](O)[C@H](O)[C@H]2O)cc1Cc1ccc(-c2ccc(F)cc2)s1		human, maintenance hemodialysis patients	oral, 300 mg once daily, steady state, median	2410 ng/mL
Cc1cc(C)c(CNC(=O)c2cc(Cl)c3c(c2C)O[C@@](C)([C@H]2CC[C@H](N(C)C)CC2)O3)c(=O)[nH]1	LC-MS/MS	human male, plasma	oral, 200 mg, single dose, [14C]-labelled	1940 ng/mL
C=CC(=O)NC1CCN(c2ncc3ncnc(Nc4ccc(Oc5ccc6c(c5)ncn6C)c(C)c4)c3n2)CC1		human, male, plasma	oral, 30 mg, fasted, adjusted geometric mean	398 nM
CN(C)C(=O)c1cc2cnc(Nc3ccc(N4CCNCC4)cn3)nc2n1C1CCCC1		human, normal renal function, plasma	oral, 400 mg, single dose, geometric mean	234 ng/mL
CC(C)[C@@H]1CC[C@@H](C)C[C@H]1OC(=O)O[C@@H](C)OC(=O)[C@H]1[C@@H]2C[C@H](F)[C@@](N)(C(=O)O)[C@@H]21		human, plasma	oral, 10 mg, fasted, single dose	14.6 ng/mL
C[C@@H](Oc1ccc(S(C)(=O)=O)cc1C(=O)N1C[C@@H]2C[C@]2(c2cc(C(F)(F)F)on2)C1)C(F)(F)F		healthy human volunteers, fasted, plasma	oral, 10 mg single tablet, adjusted geometric mean	120 nM
NC(=S)NN=Cc1ncccc1N		human, plasma	intravenous, 50 mg, geometric mean, infusion over 2 h	318 ng/mL
CC(=O)N(C)[C@H]1CCN(C(=O)c2cnc3c(c2)C[C@](C)(c2ccc(F)cc2)N3)C1		healthy male human, plasma	oral, 15 mg once daily, geometric mean	372 nM
COC(=O)N[C@@H](C)CNc1nccc(-c2cn(C(C)C)nc2-c2cc(Cl)cc(NS(C)(=O)=O)c2F)n1		human patients, plasma	oral, 450 mg twice daily, day 1, single dose, median, together with: binimetinib 45 mg once daily	6030 ng/mL
NCCCS(=O)(=O)O		human, plasma	oral, 256.5 mg once daily, day 14, capsule, fasted, dosed days 8-14	1040 ng/mL
Cc1ncc(CO)c(C(=O)O)c1O		human males, White, plasma	concentration not given, endogenous baseline level	4.2 ± 1.5 ng/mL
CNC(=O)c1ccccc1Sc1ccc2c(/C=C/c3ccccn3)n[nH]c2c1		human, moderate hepatic impairment (Child-Pugh), plasma	single dose, geometric mean, total drug	38.8 ng/mL
C[C@H](Oc1ccc(Br)cc1-c1ccon1)C(=O)O	LC-MS/MS, non-compartmental	human, plasma	200 mg once daily, day 1, multiple ascending dose, mean	9640 ng/mL
CCS(=O)(=O)Nc1ccc(Oc2ccc(F)cc2F)c(-c2cn(C)c(=O)c3[nH]ccc23)c1		human, plasma	oral, 2 mg, cycle 1 day 8, geometric mean	19.9 ng/mL
Cn1ncnc1[C@H]1c2n[nH]c(=O)c3cc(F)cc(c23)N[C@@H]1c1ccc(F)cc1		human patients, plasma	oral, 600 µg/m2 twice daily, day 1, monotherapy, dose level DL4, median	6.2 ng/mL
C[C@H](CCC(=O)NCC(=O)O)[C@H]1CC[C@H]2[C@@H]3CC[C@@H]4C[C@H](OS(=O)(=O)O)CC[C@]4(C)[C@H]3CC[C@]12C		human, plasma	concentration not given, endogenous baseline diurnal	1420 ± 310 nM

Repeated from above:
Structure (SMILES)	test	system	conditions	Cmax
Cc1noc(C)c1-c1cc(C(O)(c2ccccn2)c2ccccn2)c2nc(C3CC3)[nH]c2c1		human patients, plasma	oral, 1.4 mg, cycle 1 day 8, monotherapy	117 ng/mL
Fc1ccc([C@@H]2CCNC[C@H]2COc2ccc3c(c2)OCO3)cc1		human, CYP2D6 normal metabolizers	oral, 20 mg, steady state, geometric mean	23 ng/mL
N#Cc1ccc2c(c1)[C@H]1CCCN(C(=O)c3ccc4[nH]cnc4c3)[C@H]1C2		human, plasma	oral, 20 mg once daily, after first dose	1560 nM
